Published values of several laboratories.
Protocols differ between the studies behind these lines. Numbers after ± are the reported error.

SMILES | assay | system | conditions | MRT [h]
CC(C)NC(=O)COc1cccc(-c2nc(Nc3ccc4[nH]ncc4c3)c3ccccc3n2)c1 |  | male C57BL/6 mouse, brain | oral, 100 mg/kg | 3.06
COc1cccc(N2CCN(C3=Nc4c(F)cccc4[C@H](CC(=O)O)N3c3cc(C(F)(F)F)ccc3OC)CC2)c1 | UHPLC-MS/MS | healthy women, plasma | intravenous infusion, 120 mg single dose, 30 min infusion, HPβCD formulation | 6.14 ± 1.84
O=c1c(O)c(-c2ccc(O)cc2)oc2cc(OS(=O)(=O)O)cc(O)c12 |  | FVB mice, male, Mrp2^−/−, plasma | oral, 10 mg/kg of kaempferol | 3.28 ± 0.217
CO/N=C1\C[C@]2(C[C@@H]3C[C@@H](C/C=C(\C)C[C@@H](C)/C=C/C=C4\CO[C@@H]5[C@H](O)C(C)=C[C@@H](C(=O)O3)[C@]45O)O2)O[C@H](/C(C)=C/C(C)C)[C@H]1C | HPLC, non-compartmental | Corriedale lambs, parasitized, plasma | subcutaneous, 0.2 mg/kg, together with: closantel 5 mg/kg subcutaneous | 120 ± 73
CC(C)=CCC[C@](C)(O[C@@H]1O[C@H](CO)[C@@H](O)[C@H](O)[C@H]1O)[C@H]1CC[C@]2(C)[C@@H]1[C@H](O)C[C@@H]1[C@@]3(C)CC[C@H](O)C(C)(C)[C@@H]3[C@@H](O[C@@H]3O[C@H](CO)[C@@H](O)[C@H](O)[C@H]3O[C@@H]3O[C@@H](C)[C@H](O)[C@@H](O)[C@H]3O)C[C@]12C |  | Sprague Dawley rats, male, plasma | oral, 45 mg/kg, aqueous solution, together with: co-dosed pure ginsenoside mixture | 12.6 ± 7.9
CCN(CC)Cc1cc(Nc2ccnc3cc(Cl)ccc23)ccc1O |  | rat, Wistar, male, plasma | oral, 60 mg/kg | 5.78 ± 0.7
COc1ccc(/C=C\c2cc(OC)c(OC)c(OC)c2)cc1OP(=O)(O)O |  | Sprague-Dawley rat male, plasma | intravenous, 28 mg/kg | 0.89 ± 0.38
N#C[C@]1(CO)O[C@@H](n2cnc3c(=O)[nH]c(N)nc32)C[C@@H]1O |  | male Sprague-Dawley rat, plasma | oral, 1 mg/kg, together with: entecavir 1 mg/kg | 1.91 ± 0.34
CC(C)=CCC[C@](C)(O[C@@H]1O[C@H](CO[C@@H]2O[C@H](CO)[C@@H](O)[C@H](O)[C@H]2O)[C@@H](O)[C@H](O)[C@H]1O)[C@H]1CC[C@]2(C)[C@@H]1[C@H](O)C[C@@H]1[C@@]3(C)CC[C@H](O[C@@H]4O[C@H](CO)[C@@H](O)[C@H](O)[C@H]4O[C@@H]4O[C@H](CO)[C@@H](O)[C@H](O)[C@H]4O)C(C)(C)[C@@H]3CC[C@]12C |  | Sprague Dawley rats, male, plasma | oral, 86 mg/kg, aqueous solution, together with: co-dosed pure ginsenoside mixture | 11 ± 6.7

A few entries again:
SMILES | assay | system | conditions | MRT [h]
COc1cccc(N2CCN(C3=Nc4c(F)cccc4[C@H](CC(=O)O)N3c3cc(C(F)(F)F)ccc3OC)CC2)c1 | UHPLC-MS/MS | healthy women, plasma | intravenous infusion, 120 mg single dose, 30 min infusion, HPβCD formulation | 6.14 ± 1.84
